Published values pooled from the literature.
Values joined by “and” are separate records of one study, mostly repeats; a detail may differ. Numbers after ± are the reported error.

Structure (SMILES)	assay	test system	conditions	scale	measurement	result
O=c1[nH]c(=S)[nH]c2c1C(c1cc(/N=N/c3ccc(Br)cc3)ccc1O)c1c([nH]c(=S)[nH]c1=O)N2		rat, carrageenan paw oedema	oral, 50 mg/kg, 3 h		oedema inhibition	54%
COc1ccc(C2CC(c3ccc(C)cc3)=Nc3ccccc3S2)cc1OC (stereo not shown)		rat, normal, overnight fasted	oral, 10 mg/kg, 90 min, oral glucose tolerance test, together with: glucose 3 g/kg oral		blood glucose	112 ± 4.57 mg/dL
N[C@@H](CC(=O)O)C(=O)N1CCC[C@H]1C(=O)NCC(=O)NCC(=O)O	diketopiperazine formation, transition state theory	1-propanol	concentration not given, 70, 80, 90 °C, 0.5% acetic acid		enthalpy of activation	16.5 ± 0.239 kcal/mol
O=C(O[C@@H]1Cc2c(O)cc(O)cc2O[C@@H]1c1cc(O)c(O)c(O)c1)c1cc(O)c(O)c(O)c1	sulfation, substrate	human liver cytosol			substrate inhibition onset	> 40 µM
CCCCCCCCCCCCCCCC(=O)NCCCC[C@H](N)C(=O)N[C@@H](CC(=O)O)C(=O)N[C@H](C(=O)N[C@@H](Cc1c[nH]cn1)C(=O)N[C@@H](Cc1ccccc1)C(=O)N[C@@H](CCCNC(=N)N)C(=O)N[C@H](C(=O)N[C@@H](Cc1ccccc1)C(=O)N[C@@H](CCCNC(=N)N)C(=O)N[C@@H](CO)C(=O)N[C@@H](Cc1c[nH]cn1)C(=O)N[C@@H](CO)C(=O)N[C@@H](CC(=O)O)C(=O)N[C@@H](Cc1ccc(O)cc1)C(=O)N[C@@H](CCCNC(=N)N)C(=O)N[C@@H](CCCNC(=N)N)C(=O)N[C@H](C(=O)O)[C@@H](C)CC)[C@@H](C)O)[C@@H](C)O		C57BL/6J mouse, MCD diet	intraperitoneal, 0.6 nmol/g, 3 weeks, 3 times weekly		final body weight	20.9 ± 0.2 g
NCC(=O)N1CCC[C@H]1C(=O)NCC(=O)NCC(=O)O	diketopiperazine formation, transition state theory	1-propanol	concentration not given, 70, 80, 90 °C, 0.5% acetic acid		enthalpy of activation	18.2 ± 1.91 kcal/mol
CCCN1C(=O)CCc2cc(NS(=O)(=O)Cc3ccccc3)ccc21		Arabidopsis thaliana Col-0 seeds	1 µM		seed germination inhibition	inactive
COc1ccc2c(c1)c(CC(=O)OCOC(C)=O)c(C)n2C(=O)c1ccc(Cl)cc1	hot plate test	BALB/c mice	50 mg/kg, 60 min		latency of nociceptive response	15.9 ± 0.87 s
Cn1c(=O)c(=O)n(C)c2cc(S(=O)(=O)Nc3ccc(S(=O)(=O)Nc4ncccn4)cc3)ccc21	IPGTT	HFD/STZ diabetic male albino mice	10 mg/kg, 3 h		blood glucose	98.3 ± 8.11 mg/dL
CSc1nn(-c2ccccc2)c(NC(=O)/C(C#N)=C(/Nc2ccc(C)cc2)Nc2c(C)n(C)n(-c3ccccc3)c2=O)c1C#N	real-time PCR, refers to: COX-1	mouse, formalin test, paw tissue	dose not given, unit not given	reference: control	mRNA level	1.99 ± 0.18
CC1SC(N/N=C2\c3ccccc3-c3nc4cc(F)ccc4nc32)=NC1=O (stereo not shown)		mice with STZ-induced diabetes	oral, 25 mg/kg, 216 h, day 9		blood glucose	294 ± 31.3 mg/dL
Cc1nc(C)c(C=[N+]([O-])C(C)(C)C)nc1C	Western blot, refers to: HO-1	mouse, MPTP model, substantia nigra nuclei	30 mg/kg		protein level increase	25.6%
O=C(CN1CCC(O)CC1)Nc1nc(-c2ccccc2)cs1	Fe3+/ascorbic acid system		concentration not given, 30 min, 37 °C, together with: DMSO 33 mM		hydroxyl radical scavenging	75.3%
Cc1cccc(Cn2ncc3c4cc(F)c(CN(C)C)cc4n(C)c3c2=O)n1	refers to: Mif	rd10 mouse, retina	intraperitoneal, 50 mg/kg at P14, P21	reference: vehicle	mRNA level	decreased
C=C(c1ncc(C(=O)O)cn1)c1cc2c(cc1C)C(C)(C)CCC2(C)C	RNA sequencing, refers to: Upp1	rat, brain	dose not given, 24 h	reference: vehicle	log2 fold change	-0.7
N[C@@H](Cc1c[nH]c2ccccc12)C(=O)N1CCC[C@H]1C(=O)NCC(=O)NCC(=O)O	diketopiperazine formation, transition state theory	1-propanol	70, 80, 90 °C, 0.5% acetic acid		ΔS‡ at 298.15 K	1 ± 1 J/(mol·K)
CCCCCCCCCCCCCCc1sc(NC(=O)CCN2CCC(O)CC2)nc1-c1ccccc1	Fe3+/ascorbic acid system		concentration not given, 30 min, 37 °C, together with: DMSO 33 mM		hydroxyl radical scavenging	40%
FC(F)(F)Oc1ccc(/N=c2\oc3ccccc3cc2-c2ccccc2)cc1		rat, formalin paw oedema	intraperitoneal, 10 mg/kg, 2 h		oedema reduction	37.5 ± 2.5%
CC(C)n1cnc(-c2ccc(F)cc2)c1-c1ncc(C(=O)Nc2ccc(N3CCN(C)CC3)cc2)[nH]1		IPF patients	30 mg twice daily, 12 weeks, mean		FVC change from baseline	19.7 mL
Oc1ccc2nc1CNCCNCCNC2	potentiometric titration		298 K, I 0.15 M NaCl, together with: Cu2+		log beta ML	22.7
CC(=O)[O-].O.O.O.O.[Co+2].[O-]c1ccc(Br)cc1C=NCCN1CCOCC1	hydroxyl radical scavenging		240 µM		inhibition	55.7%
COc1c2c(cc3oc(CO)cc(=O)c13)O[C@H](C(C)(C)O)C2	analgesia, hot plate test	mouse	oral, dose not given		onset of latency increase	0.5 h
C=C(c1cc(F)c(C(=O)O)c(F)c1)c1cc2c(cc1C)C(C)(C)CCC2(C)C	RNA sequencing, refers to: Aurkb mRNA	rat, brain	dose not given, 24 h, single dose	reference: vehicle	log2 fold change	0.9

Structure (SMILES)	assay	test system	conditions	scale	measurement	result
NC[C@@H](C(=O)Nc1ccc(-c2cn[nH]c2)cc1)c1ccccc1		normotensive Macaca cyclopis monkeys	topical, 0.1 %		mean IOP reduction	28.5%
CCOc1c(C(C)(C)O)sc2cnc(Nc3ccc(N4CCC(N5CC6(COC6)C5)CC4)cc3OC)nc12		human atrial trabeculae	3 and 10 µM, rest pause 10 s		post-rest contraction amplitude	increased
[2H]c1c(NS(C)(=O)=O)c([2H])c2c(C(=O)c3ccc(OCCCN(CCCC)CCCC)cc3)c(CCCC)oc2c1[2H]		dog, persistent atrial fibrillation model, conscious	intravenous, 3 mg/kg, hydrochloride salt		time to AF termination	6.1 h and 12.3 h
FC(F)(F)c1ccccc1/N=c1\oc2ccccc2cc1-c1ccccc1		rat, formalin paw oedema	intraperitoneal, 20 mg/kg, 1 h		oedema reduction	30.7 ± 2.4%
CC[C@H](C)[C@H](N)C(=O)N1CCC[C@H]1C(=O)NCC(=O)NCC(=O)O	diketopiperazine formation, transition state theory	1-propanol	70, 80, 90 °C, 0.5% acetic acid		ΔS‡ at 298.15 K	-64 ± 6 J/(mol·K)
Cc1csc(NC(=O)CN2CCC(O)CC2)n1	paw oedema	mouse	intraperitoneal, 200 µmol/kg		inhibition in vivo	59%
CCCCOc1nc(N)c2[nH]c(=O)n(CCCN(CCCN3CCOCC3)Cc3cccc(CC(=O)OC)c3)c2n1		rat, Brown Norway, ovalbumin-sensitised	intratracheal, 1 mg/kg once weekly, eight doses, challenge 26 days after last dose		BAL eosinophils	inhibited
NC(=O)CC[C@H](N)C(=O)N1CCC[C@H]1C(=O)NCC(=O)NCC(=O)O	diketopiperazine formation, transition state theory	1-propanol	70, 80, 90 °C, 0.5% acetic acid		ΔS‡ at 298.15 K	-31 ± 5 J/(mol·K)
Cc1ccc(C(=O)Nc2ccc(CP(=O)(O)O)cc2CP(=O)(O)O)cc1NC(=O)c1cccc(NC(=O)Nc2cccc(C(=O)Nc3cc(C(=O)Nc4ccc(CP(=O)(O)O)cc4CP(=O)(O)O)ccc3C)c2)c1		human plasma	329 µM		PT	14.7 ± 1.3 s
CCCCCCCCCCCCCCCC(=O)OCC(CSC[C@H](N)C(=O)N[C@@H](CO)C(=O)N[C@@H](CCCCN)C(=O)N[C@@H](CCCCN)C(=O)N[C@@H](CCCCN)C(=O)N[C@@H](CCCCN)C(=O)NCCCCCC(=O)N[C@@H](CCCCN)C(=O)N[C@@H](CC(C)C)C(=O)N[C@H](C(=O)N[C@@H](Cc1ccccc1)C(=O)N[C@@H](Cc1ccccc1)C(=O)N[C@@H](Cc1ccc2ccccc2c1)C(=O)O)C(C)C)OC(=O)CCCCCCCCCCCCCCC (stereo partly shown)		APP/PS1 mouse	intracortical, dose not given, 5 d	reference: vehicle	OC+ TS- plaque area	decreased
[2H]C([2H])([2H])C(c1cc2nnc(-c3cc(F)ccc3F)n2nc1OCc1ncnn1C)(C([2H])([2H])[2H])C([2H])([2H])[2H]		GAERS rats	oral, 0.075 mg/kg, 10 to 130 min	reference: vehicle	spike-wave discharge rate	decreased
CCOC(=O)Cc1csc(NC(=O)CN2CCC(O)CC2)n1	paw oedema	mouse	intraperitoneal, 200 µmol/kg		inhibition in vivo	33.4%
COc1cc(CN2CCN(c3ccc(C(F)(F)F)cc3)CC2)c2cc3[n+](cc2c1O)CCc1cc2c(cc1-3)OCO2	ferric reducing power, FRAP		10 µg/mL, 30 min	higher is greater reducing power	FRAP absorbance	0.004 ± 0.56 a.u.
O=C1CCN(Cc2ccccc2)CC1C(C[N+](=O)[O-])c1ccccc1 (stereo not shown)	tail immersion test	BALB/c mice	ip, 25 mg/kg, 1.25 h		tail flick response	42.2%
COc1ccc2c(c1)c(CC(=O)OCC(=O)c1ccccc1)c(C)n2C(=O)c1ccc(Cl)cc1	hot plate test	BALB/c mice	50 mg/kg, 0 min		latency of nociceptive response	9.06 ± 0.88 s
CCC(C)n1c(C(=O)Nc2cnc(C(=O)NC)n(CC(C)C)c2=O)ncc(NC(=O)c2ncc(NC(=O)c3ccccc3)c(=O)n2Cc2ccc(OC)cc2)c1=O (stereo not shown)	flow cytometry	MOLT-4, zebrafish embryo xenograft	500 nM, 48 h	reference: DMSO	transplanted cell number	decreased
CCCC[C@H](NC(=O)[C@H](C)NC(=O)[C@H](CO)NC(=O)[C@H](CC(C)C)NC(=O)[C@H](CCCCN)NC(=O)[C@]1(C)CCCC=CCCCCCC[C@@](C)(NC(=O)[C@H](CCC(=O)O)NC(=O)[C@H](CC(C)C)NC(=O)[C@]2(C)CCCC=CCCCCCC[C@@](C)(NC(=O)[C@H](CC(C)C)NC(=O)[C@H](CS)NC(=O)[C@H](CCC(N)=O)NC(=O)[C@H](C)NC(=O)[C@H](CCCNC(=N)N)NC(C)=O)C(=O)N[C@@H](CCC(N)=O)C(=O)N[C@@H](CCCNC(=N)N)C(=O)N[C@@H](CCC(=O)O)C(=O)N[C@@H](CCCC)C(=O)N[C@@H](C(C)C)C(=O)N[C@@H](CCC(N)=O)C(=O)N2)C(=O)N[C@@H](CCC(N)=O)C(=O)N[C@@H](CC(C)C)C(=O)N[C@@H](C(C)C)C(=O)N[C@@H](CC(C)C)C(=O)N[C@@H](CCC(=O)O)C(=O)N[C@@H](CCCCN)C(=O)N1)C(=O)N[C@@H](CCC(N)=O)C(=O)N[C@@H](C)C(=O)N[C@@H](Cc1c[nH]cn1)C(N)=O	Treg-mediated suppression, flow cytometry	Treg and Tcon cells, mouse	dose not given, 3 d, Treg:Tcon 1:1		Tcon cell proliferation	79.1%
CCCc1nc2cc(C(=O)N3CCC4(CC3)CC(=O)c3cc5c(cc3O4)OC(C)(C)CC5)cc(C)c2[nH]1	refers to: F4/80, Cxcl2, Cxcl10	C57BL/6J male mouse, HFD-induced NASH, liver	intragastric, dose not given, daily	reference: vehicle	mRNA level	decreased
COc1ccc2c(c1)C(C)(C)C(/C=C/C1=C(Oc3ccc(C(=O)NCCCCOc4cc(CN(Cc5ccccn5)Cc5ccccn5)cc(CN(Cc5ccccn5)Cc5ccccn5)c4)cc3)C(=C/C=C3/N(CCCCS(=O)(=O)[O-])c4ccc(OC)cc4C3(C)C)CCC1)=[N+]2CCCCS(=O)(=O)[O-].O=[N+]([O-])[O-].O=[N+]([O-])[O-].[99Tc+].[C-]#[O+].[C-]#[O+].[C-]#[O+].[Zn+2]		BALB/c mouse S. aureus myositis	intravenous, 0.74 MBq/mouse, 12 h	reference: infected over contralateral muscle	target-to-non-target ratio	10.1 ± 1.1
O=C1NC(=O)C(C2CCOc3cc(Oc4ccc(C(F)(F)F)cc4Cl)ccc32)S1 (stereo not shown)	refers to: total GLP-1	colonic crypt cultures, Gpr40 knockout, mouse, ex vivo	1 µM, 2 h	reference: vehicle	GLP-1 release	1.1 ± 0.06 fold change
N[C@@H](Cc1ccccc1)C(=O)N1CCC[C@H]1C(=O)NCC(=O)NCC(=O)O	diketopiperazine formation, transition state theory	1-propanol	concentration not given, 70, 80, 90 °C, 0.5% acetic acid		enthalpy of activation	21 ± 1.91 kcal/mol
CCOC(=O)[C@H](C)NP(=O)(N[C@@H](C)C(=O)OCC)c1ccc(-c2nc(N)sc2CC(C)C)o1		FBP1 G27P knock-in mice, blood	intraperitoneal, 75 mg/kg		blood glucose and lactate	no effect
CC[C@H]1[C@@H](O)[C@@H]2[C@H](CC[C@]3(C)[C@@H]([C@H](C)CCOS(=O)(=O)[O-])CC[C@@H]23)[C@@]2(C)CC[C@@H](O)C[C@@H]12.[Na+]		ob/ob NASH mouse model, plasma	oral, 3 mg/kg once daily, before treatment, baseline of 8 week study		AST activity	421 ± 16.7 U/L

Excerpt of the above:
Structure (SMILES)	assay	test system	conditions	scale	measurement	result
NC[C@@H](C(=O)Nc1ccc(-c2cn[nH]c2)cc1)c1ccccc1		normotensive Macaca cyclopis monkeys	topical, 0.1 %		mean IOP reduction	28.5%
CCOc1c(C(C)(C)O)sc2cnc(Nc3ccc(N4CCC(N5CC6(COC6)C5)CC4)cc3OC)nc12		human atrial trabeculae	3 and 10 µM, rest pause 10 s		post-rest contraction amplitude	increased
[2H]c1c(NS(C)(=O)=O)c([2H])c2c(C(=O)c3ccc(OCCCN(CCCC)CCCC)cc3)c(CCCC)oc2c1[2H]		dog, persistent atrial fibrillation model, conscious	intravenous, 3 mg/kg, hydrochloride salt		time to AF termination	6.1 h and 12.3 h
FC(F)(F)c1ccccc1/N=c1\oc2ccccc2cc1-c1ccccc1		rat, formalin paw oedema	intraperitoneal, 20 mg/kg, 1 h		oedema reduction	30.7 ± 2.4%
CC[C@H](C)[C@H](N)C(=O)N1CCC[C@H]1C(=O)NCC(=O)NCC(=O)O	diketopiperazine formation, transition state theory	1-propanol	70, 80, 90 °C, 0.5% acetic acid		ΔS‡ at 298.15 K	-64 ± 6 J/(mol·K)
Cc1csc(NC(=O)CN2CCC(O)CC2)n1	paw oedema	mouse	intraperitoneal, 200 µmol/kg		inhibition in vivo	59%
